Experimental data from different studies.
Each line is one published result; not all experiments were run side by side. ± gives the spread as reported.

| SMILES | target or system | assay | test system | conditions | measurement | value |
| --- | --- | --- | --- | --- | --- | --- |
| CC(=O)C1=CC[C@H]2[C@]3(C)CC[C@H]4C(C)(C)CCC[C@]4(CO)[C@H]3CC(=O)[C@]2(C)[C@H]1C=O | T47D | luciferase reporter gene |  | 16 h, hypoxia 1% O2, added: pGL3-Control construct | IC50 | > 10 µM |
| O=c1cc(-c2ccccc2)oc2cc(O)cc(O)c12 | Jurkat | cell growth or viability, ATP luminescence |  | 24 h | IC50 | 180 µM |
| O=c1[nH]c2ccccc2nc1/C=C/c1ccc2ccccc2c1 | B16-F10 | cell growth or viability, MTT |  | 72 h | IC50 | 7.09 µM |
| C[C@]12CC[C@@H]3c4ccc(O)cc4CC[C@H]3[C@@H]1CC[C@@H]2O | GPER-transduced Sf9 | ERK phosphorylation, inhibitor, immunoblotting |  | 15 min | IC50 | 0.0046 µM |
| Cc1cc(C)n(C(C(=O)OC(C)C)n2nc(C)cc2C)n1 | LoVo OXP, oxaliplatin-resistant | MTT |  | 72 h | IC50 | > 50 µM |
| COc1cccc2c1C(=O)c1c(O)c3c(c(O)c1C2=O)C[C@@](O)(C(=O)CO)C[C@@H]3O[C@H]1C[C@H](N)[C@H](O)[C@H](C)O1 | BEAS-2B | cell growth or viability, MTT |  | 72 h | IC50 | 0.22 µM |
| O=c1cc(-c2ccc(O)cc2)oc2cc(O)cc(O)c12 | Jurkat | cell growth or viability, ATP luminescence |  | 24 h | IC50 | 143 µM |
| O=c1c(/C=C/c2ccccc2Br)nc2ccccc2n1Cc1ccccc1 | B16-F10 | cell growth or viability, MTT |  | 72 h | IC50 | 16.9 µM |
| CC1(C)S[C@@H]2[C@H](NC(=O)[C@H](N)c3ccc(O)cc3)C(=O)N2[C@H]1C(=O)O | Haemophilus influenzae |  | hospitalized pneumonia patients, clinical isolates | Fine score 70 or more | susceptible isolates | 88.9% |
| O[C@H]1[C@H]2c3cc4c(cc3CN3CCC(=C[C@@H]1Cl)[C@H]23)OCO4 | SK-MEL-28 | cell growth or viability, MTT |  | 72 h | IC50 | 14.8 µM |
| COc1cccc2c1C(=O)c1c(O)c3c(c(O)c1C2=O)C[C@@](O)(C(=O)CO)C[C@@H]3O[C@H]1C[C@H](N)[C@H](O)[C@H](C)O1 | T47D | cell growth or viability, MTT |  | 48 h | IC50 | 6 µM |
| Nc1nc2[nH]c(CCCc3ccc(C(=O)N[C@@H](CC(=O)O)C(=O)O)s3)cc2c(=O)[nH]1 | CHO RT16 (human FRα) | cell growth |  | added: folic acid 200 nM | IC50 | > 1 µM |
| CC(=O)OCc1ccc(C=O)o1 | Hepa-1c1c7 | cell growth or viability |  |  | IC50 | > 100 µM |
| O=C1Nc2ccccc2C1=Cc1cc2ccc(Cl)cc2nc1Cl | OV2008 | cell viability, MTT |  | 72 h | IC50 | 49.1 µM |
| N=C(N)NCCC[C@H](NC(=O)[C@H](Cc1c[nH]c2ccccc12)NC(=O)[C@H](CCC(N)=O)NC(=O)[C@H](Cc1c[nH]c2ccccc12)NC(=O)[C@H](CCCNC(=N)N)NC(=O)[C@H](Cc1c[nH]c2ccccc12)NC(=O)[C@H](CCC(N)=O)NC(=O)[C@H](Cc1c[nH]c2ccccc12)NC(=O)[C@H](CCCNC(=N)N)NC(=O)[C@@H](N)CCCNC(=N)N)C(N)=O | MCF-12 | cell viability, MTT |  | 2 h | IC50 | > 121 µM |
| O=C1c2c(O)ccc(O)c2C(=O)c2c(NCCNCCO)ccc(NCCNCCO)c21 | HCT-15/ADM2 | cell growth, XTT |  | 72 h | IC50 | 0.47 µg/mL |
| O=c1[nH]c2ccccc2nc1/C=C/c1ccc(C(F)(F)F)cc1 | NCI-H460 | cell growth or viability, MTT |  | 72 h | IC50 | > 50 µM |
| CC(=O)C(=NNc1ccc(S(=O)(=O)Nc2ncccn2)cc1)C(C)=O | A-431 | cell growth or viability, MTT |  | 48 h | IC50 | 17.2 µM |
| COc1ccc([C@H](CC(=O)O)N2CCN(CCCc3ccc4c(n3)NCCC4)C2=O)cn1 | human podocytes | cell migration |  | 48 h, added: puromycin 15 µg/mL | IC50 | 0.0099 µM |
| Cn1c(=O)c(/C=C/c2ccccn2)nc2ccccc21 | NCI-H460 | cell growth or viability, MTT |  | 72 h | IC50 | 5.78 µM |
| CCCCCCNC(=O)n1cc(F)c(=O)[nH]c1=O | MH-22A | cell viability, MTT |  | 72 h | IC50 | 43 µM |
| CC(=O)C(=O)O | QGP-1 | glucose-induced ECAR |  | 20 min | IC50 | 540 ± 80 µM |
| CCC(=O)C(=NNc1ccc(S(=O)(=O)Nc2ncccn2)cc1)C(C)=O | A-431 | cell growth or viability, MTT |  | 48 h | IC50 | 18.2 µM |
| Cc1cc(Nc2ncnc3ccc(NC4=NC(C)(C)CO4)cc23)ccc1Oc1ccn2ncnc2c1 | A-431 | cell growth or viability, ATP luminescence |  | 72 h | IC50 | 28.5 µM |
| C[C@@H]1C[C@H]2[C@@H]3CCC4=CC(=O)C=C[C@]4(C)[C@@]3(F)[C@@H](O)C[C@]2(C)[C@@]1(O)C(=O)CO | ReNcell VM | cell viability, live/dead 3D alginate microarray |  | 24 h exposure plus 48 h | IC50 | 1920 µM |
| C=CC(=O)N1CCC([C@@H]2CCNc3c(C(N)=O)c(-c4ccc(Oc5ccccc5)cc4)nn32)CC1 | OCI-Ly10 | cell growth or viability, CCK-8 |  | 72 h | IC50 | 0.846 µM |
| CC1(C)Cc2c(-c3ccccc3)c(-c3ccc(Cl)cc3)c(CC(=O)O)n2C1 | HCA-7 overexpressing Has2 | cell proliferation, MTS |  |  | IC50 | 186 ± 11.9 µM |
| CC[C@H](C)[C@H](N)C(=O)N[C@H](C(=O)N[C@@H](CCCNC(=N)N)C(=O)N[C@@H](Cc1c[nH]c2ccccc12)C(=O)N[C@@H](CO)C(=O)N[C@@H](CCCCN)C(=O)N[C@@H](CCCCN)C(=O)N[C@H](C(=O)N1CCC[C@H]1C(=O)N[C@@H](CS)C(=O)N[C@H](C(=O)N[C@@H](CO)C(=O)O)C(C)C)C(C)C)C(C)C | SUP-T1 | ERK phosphorylation, inhibitor, phosphoflow cytometry |  | added: CXCL12 100 ng/mL, 2 min | IC50 | 15.2 ± 3.97 µM |

| SMILES | target or system | assay | test system | conditions | measurement | value |
| --- | --- | --- | --- | --- | --- | --- |
| CN(C)CC[C@H](CSc1ccccc1)Nc1ccc(S(=O)(=O)Nc2ccc(N3CCNCC3)cc2)cc1[N+](=O)[O-] | NCI-H1417 | cell growth or viability |  | 96 h | IC50 | > 10 µM |
| Clc1ccc2nc(-c3ccc(OCc4cn(CCN5CCOCC5)nn4)cc3)[nH]c2c1 | Z-138 | cell growth or viability, MTS |  | 72 h | IC50 | 55.7 µM |
| CC[C@H]1OC(=O)[C@H](C)[C@@H](O[C@H]2C[C@@](C)(OC)[C@@H](O)[C@H](C)O2)[C@H](C)[C@@H](O[C@@H]2O[C@H](C)C[C@H](N(C)C)[C@H]2O)[C@](C)(O)C[C@@H](C)CN(C)[C@H](C)[C@@H](O)[C@]1(C)O | all pathogens |  | community-acquired pneumonia patients | Fine score 70 or more | sensitive strains | 60% |
| CC(C)C[C@H](NC(=O)CNC(=O)Cc1c(F)c(F)c(F)c(F)c1F)C(=O)[C@@]1(C)CO1 | NCI-H460 | cell growth or viability |  |  | IC50 | > 10 µM |
| O=c1[nH]c2ccccc2nc1/C=C/c1ccccn1 | B16-F10 | cell growth or viability, MTT |  | 72 h | IC50 | 0.058 µM |
| C=C1C(=O)O[C@H]2[C@H]1CCC(C)=C1CC[C@@](C)(O)[C@@H]12 | NCI/ADR-RES | cell growth, inhibitor, Alamar blue |  |  | IC50 | 22 ± 5.3 µM |
| COc1cc(F)c([C@@H]2CNC(=O)[C@H]2NC(=O)Nc2ccccc2)c(F)c1 | differentiated HL-60 | chemotaxis, antagonist |  | added: serum amyloid A 0.8 µM | IC50 | 0.021 µM |
| CC1=CC(C)=[N+]2C1=C(CCCC(=O)O)c1c(C)cc(C)n1[B-]2(F)F | HEp-2 cells | phototoxicity |  | added: light 1.5 J/cm^2 | IC50 | > 100 µM |
| Fc1cc(-c2nc3ccccc3[nH]2)ccc1OCCN1CCOCC1 | Z-138 | cell growth or viability, MTS |  | 72 h | IC50 | > 100 µM |
| CS(=O)(=O)CCNCc1ccc(-c2ccc3ncnc(Nc4ccc(OCc5cccc(F)c5)c(Cl)c4)c3c2)o1 | NCI-N87 | cell growth, inhibitor |  | 0.08% alpha1-acid glycoprotein | IC50 | 0.449 ± 0.0366 µM |
| CC(C)c1cccc(C(C)C)c1-n1ccn(-c2c(C(C)C)cccc2C(C)C)[c]1=[Au][Se]c1ccccc1 | Vero E6 | cytotoxicity, crystal violet staining |  | 96 h | IC50 | 7.1 ± 0.6 µM |
| O=Cc1ccc(CO)o1 | Hepa-1c1c7 | cell growth or viability |  |  | IC50 | > 100 µM |
| CCN(CC)CCOc1ccc(-c2nc3ccc(F)cc3[nH]2)cc1 | Z-138 | cell growth or viability, MTS |  | 72 h | IC50 | 31.1 µM |
| C#CCOc1ccc(/C=N\NC(N)=S)cc1 | T47D | cell growth or viability, MTT |  | 48 h | IC50 | 130 µM |
| CC(=O)c1c(C)c2cnc(Nc3ccc(N4CCNCC4)cn3)nc2n(C2CCCC2)c1=O | ZR-75-1 | cell growth or viability |  | 6 days | IC50 | 0.759 µM |
| C=CC(C)(O)Cc1cc(CC(=O)c2ccc(O)cc2O)c(O)cc1O (stereo not shown) | Hepa-1c1c7 | cell growth or viability |  |  | IC50 | > 100 µM |
| O=c1[nH]c2ccccc2nc1/C=C/c1ccccc1Cl | B16-F10 | cell growth or viability, MTT |  | 72 h | IC50 | 5.65 µM |
| O=C(COc1ccc(-c2nc3ccc(F)cc3[nH]2)cc1)N1CCOCC1 | Z-138 | cell growth or viability, MTS |  | 72 h | IC50 | > 100 µM |
| Cn1c(-c2ccc(C(N)=O)cc2F)nnc1C(C)(C)Oc1c(F)cc(Cl)cc1F |  |  | young non-Japanese humans, plasma | oral, 2 mg, day 1, single dose | median half-life | 93 h |
| CS(=O)(=O)c1ccc2nc(NC(=O)Cn3cc(COc4ccc(/C=N/NC(=O)c5ccncc5)cc4)nn3)sc2c1 | T47D | cell growth or viability, MTT |  | 48 h | IC50 | 46 µM |
| Cn1c(=O)c(/C=C/c2ccccc2)nc2ccccc21 | NCI-H460 | cell growth or viability, MTT |  | 72 h | IC50 | 4.14 µM |
| CC(=O)OC[C@H]1O[C@@H]([S-])[C@H](OC(C)=O)[C@@H](OC(C)=O)[C@@H]1OC(C)=O.CCP(CC)CC.[Au+] | Vero E6 | cytotoxicity, crystal violet staining |  | 96 h | IC50 | 2.6 ± 0.1 µM |
| O=c1[nH]c2ccccc2nc1/C=C/c1cccs1 | B16-F10 | cell growth or viability, MTT |  | 72 h | IC50 | 12.5 µM |
| CC(C)=CCC/C(C)=C/CC/C(C)=C/CC[C@]1(C)CCc2cc(O)cc(C)c2O1 | differentiated HL-60 | LTB4 formation |  | 30 min preincubation, added: thapsigargin | IC50 | ~5 µM |
| O=C(COc1ccc(-c2nc3ccc(Cl)cc3[nH]2)cc1)N1CCOCC1 | Z-138 | cell growth or viability, MTS |  | 72 h | IC50 | > 100 µM |
| O=c1ncccn1[C@@H]1O[C@H](CO)[C@@H](O)[C@H]1O | HuCCT-1 | cell growth or viability, MTT |  | 72 h | IC50 | 149 µg/mL |
| CC(=O)[O][Pt]([NH2])([Cl])([Cl])([NH]C1CCCCC1)[O]C(C)=O | CH1 | cell viability, MTT |  | 96 h | IC50 | 0.1 ± 0.02 µM |

A few entries again:
| SMILES | target or system | assay | test system | conditions | measurement | value |
| --- | --- | --- | --- | --- | --- | --- |
| COc1cccc2c1C(=O)c1c(O)c3c(c(O)c1C2=O)C[C@@](O)(C(=O)CO)C[C@@H]3O[C@H]1C[C@H](N)[C@H](O)[C@H](C)O1 | BEAS-2B | cell growth or viability, MTT |  | 72 h | IC50 | 0.22 µM |
| CCCCCCNC(=O)n1cc(F)c(=O)[nH]c1=O | MH-22A | cell viability, MTT |  | 72 h | IC50 | 43 µM |
| N=C(N)NCCC[C@H](NC(=O)[C@H](Cc1c[nH]c2ccccc12)NC(=O)[C@H](CCC(N)=O)NC(=O)[C@H](Cc1c[nH]c2ccccc12)NC(=O)[C@H](CCCNC(=N)N)NC(=O)[C@H](Cc1c[nH]c2ccccc12)NC(=O)[C@H](CCC(N)=O)NC(=O)[C@H](Cc1c[nH]c2ccccc12)NC(=O)[C@H](CCCNC(=N)N)NC(=O)[C@@H](N)CCCNC(=N)N)C(N)=O | MCF-12 | cell viability, MTT |  | 2 h | IC50 | > 121 µM |
| CCN(CC)CCOc1ccc(-c2nc3ccc(F)cc3[nH]2)cc1 | Z-138 | cell growth or viability, MTS |  | 72 h | IC50 | 31.1 µM |
